Measurements pooled from the literature.
A part holds a random share of what one study measured. Changes are numbered by the printed parent chain.
Chain of UniProt P62837 (whole entry, looked up): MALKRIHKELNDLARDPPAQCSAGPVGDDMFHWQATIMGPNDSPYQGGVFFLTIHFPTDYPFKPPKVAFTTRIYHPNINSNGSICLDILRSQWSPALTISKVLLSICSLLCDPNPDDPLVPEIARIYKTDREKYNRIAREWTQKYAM
Chain of UniProt Q712K3 (whole entry, looked up): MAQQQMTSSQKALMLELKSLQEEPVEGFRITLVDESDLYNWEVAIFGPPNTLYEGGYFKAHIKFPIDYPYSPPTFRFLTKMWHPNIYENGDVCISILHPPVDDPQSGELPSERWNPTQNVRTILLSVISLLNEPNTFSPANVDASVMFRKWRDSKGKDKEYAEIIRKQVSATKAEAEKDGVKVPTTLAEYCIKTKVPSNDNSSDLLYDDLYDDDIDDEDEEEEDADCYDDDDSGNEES
Chain of UniProt Q9Y2X8 (whole entry, looked up): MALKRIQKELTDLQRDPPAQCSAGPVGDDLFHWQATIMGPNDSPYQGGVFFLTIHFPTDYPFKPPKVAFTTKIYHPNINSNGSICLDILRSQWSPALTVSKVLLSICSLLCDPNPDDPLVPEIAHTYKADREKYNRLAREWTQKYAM
Chain of UniProt P63146 (whole entry, looked up): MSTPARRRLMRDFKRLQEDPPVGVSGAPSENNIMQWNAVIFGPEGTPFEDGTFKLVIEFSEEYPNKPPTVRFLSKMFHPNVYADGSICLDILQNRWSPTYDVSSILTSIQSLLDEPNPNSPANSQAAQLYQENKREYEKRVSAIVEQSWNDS
Chain of UniProt P62253 (whole entry, looked up): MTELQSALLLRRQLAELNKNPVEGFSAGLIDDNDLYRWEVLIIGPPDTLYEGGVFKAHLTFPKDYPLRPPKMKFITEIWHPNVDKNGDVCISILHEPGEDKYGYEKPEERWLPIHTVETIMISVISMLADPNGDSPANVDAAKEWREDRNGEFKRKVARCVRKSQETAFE
Chain of UniProt P68036 (whole entry, looked up): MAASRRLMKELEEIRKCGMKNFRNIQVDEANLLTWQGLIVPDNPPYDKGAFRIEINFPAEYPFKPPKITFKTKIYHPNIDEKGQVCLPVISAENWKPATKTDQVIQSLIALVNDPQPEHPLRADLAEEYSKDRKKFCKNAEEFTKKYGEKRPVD
Chain of UniProt Q9H832 (whole entry, looked up): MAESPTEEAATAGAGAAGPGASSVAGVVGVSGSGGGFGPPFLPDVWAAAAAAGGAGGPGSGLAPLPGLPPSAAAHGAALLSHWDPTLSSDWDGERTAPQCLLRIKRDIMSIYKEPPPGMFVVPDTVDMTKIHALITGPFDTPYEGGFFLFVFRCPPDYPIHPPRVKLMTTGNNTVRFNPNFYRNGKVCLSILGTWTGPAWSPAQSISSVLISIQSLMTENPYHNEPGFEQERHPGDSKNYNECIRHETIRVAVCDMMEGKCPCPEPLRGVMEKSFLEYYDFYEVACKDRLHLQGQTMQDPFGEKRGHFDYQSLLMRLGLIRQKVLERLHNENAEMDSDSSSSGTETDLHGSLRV
Chain of UniProt Q8N2K1 (whole entry, looked up): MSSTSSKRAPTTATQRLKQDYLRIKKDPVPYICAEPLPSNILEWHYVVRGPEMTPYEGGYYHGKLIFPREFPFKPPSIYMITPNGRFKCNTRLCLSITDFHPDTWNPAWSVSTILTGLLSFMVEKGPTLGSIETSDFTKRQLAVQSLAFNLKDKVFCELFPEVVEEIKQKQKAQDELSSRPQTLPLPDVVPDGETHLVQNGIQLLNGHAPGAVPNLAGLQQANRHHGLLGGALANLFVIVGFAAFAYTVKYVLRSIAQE
Chain of UniProt Q9Y385 (whole entry, looked up): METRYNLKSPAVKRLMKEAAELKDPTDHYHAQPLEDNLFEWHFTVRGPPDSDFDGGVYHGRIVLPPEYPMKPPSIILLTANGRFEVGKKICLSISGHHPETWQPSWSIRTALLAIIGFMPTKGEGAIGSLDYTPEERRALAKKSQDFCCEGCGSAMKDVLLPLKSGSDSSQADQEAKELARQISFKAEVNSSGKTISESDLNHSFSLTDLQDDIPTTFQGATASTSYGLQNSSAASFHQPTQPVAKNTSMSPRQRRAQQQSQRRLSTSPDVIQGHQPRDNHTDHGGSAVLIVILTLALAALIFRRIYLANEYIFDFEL

Set 1
Target: Centromere-binding protein 1, full length, His-tagged (CBF1, Saccharomyces cerevisiae, UniProt P17106, residues 1-351)
Chain of UniProt P17106 (whole entry, looked up): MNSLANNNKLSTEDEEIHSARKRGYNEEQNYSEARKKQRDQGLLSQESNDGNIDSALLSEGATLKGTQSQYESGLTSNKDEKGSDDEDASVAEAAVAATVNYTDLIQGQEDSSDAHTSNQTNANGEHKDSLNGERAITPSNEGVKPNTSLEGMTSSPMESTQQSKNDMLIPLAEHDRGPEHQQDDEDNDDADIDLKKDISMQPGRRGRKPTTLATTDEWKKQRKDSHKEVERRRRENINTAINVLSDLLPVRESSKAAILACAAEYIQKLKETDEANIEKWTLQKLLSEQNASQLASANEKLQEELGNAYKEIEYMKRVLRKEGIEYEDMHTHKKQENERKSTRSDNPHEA
Technique: competition protein-binding microarray
Form: double-stranded DNA, one strand shown
Medium: in vitro
Tested at: 2 µM
Notes: whole 60-bp probe, lowest competitor level
Added: Pho4 competitor, 0.05 µM
Direction: higher = stronger binding
Constant ends, left off below: … GTCTTGATTCGCTTGACGCTGCTG
| Strand | fluorescence intensity |
| --- | --- |
| AAACCTCTCTGCTTCTACCAAAGTCCTAAAATCTCC | 65 a.u. |
| TCTGAGGGACAATGGCGCGTGATGGGCCAGAGACAT | 169 a.u. |
| AGAGAATCGGGCATATTCGTGCGGATTCCTTGTCCG | 61.3 a.u. |
| CGTCCTAGTGATTTTCACGTGACTTCCATGAGGAAG | 5660 a.u. |
| GCCCATCGAAATTAGCACGATAGAGGAAGAGCAATC | 67.4 a.u. |
| CGGGGTTAAGTTTTTCACGTGCCGTGCTTTCAGCAG | 833 a.u. |
| GGCAGCCTTTTCCATCTCGTGAAATGTTTCAGCCTT | 112 a.u. |
| CATACCCAACCTTGCACGGTGGGTGAAGATATTTGT | 61.7 a.u. |
| CGGCCGGGTGAAAAGCACGTCGTTTAGGGGGGACCC | 98.7 a.u. |
| CCTCCGTTAGGTTGTCATGCCCCGAGGGTGCGAGGT | 76 a.u. |
| GTCTTGTCTCATTGCATGGTGGGTGTCCCCACTTCA | 77.4 a.u. |
| AAGAGAAGAAAAAAGCGCGTGGTCGGAGCCGCGCTA | 77.9 a.u. |
| GTCTTGTCTCATTAGCACGTGTTTTTCCCCACTTCA | 2420 a.u. |
| CGTCCTAGTGATTGTCACCAGACTTCCATGAGGAAG | 95 a.u. |
| GTCTTGTCTCATTGTCACACGACTTTCCCCACTTCA | 158 a.u. |
| TGCGCAACAACTTTTCACGTGAGGTTATGTCTAGAA | 1180 a.u. |
| TTAATGCAAAGTGGACACGTTCAGTTACTATTTCCT | 88.1 a.u. |
| CTTCTGTAAATTTGGGGTGTGGGTGGACGCGCCCCG | 78.4 a.u. |
| CTAACGAAGGTTTGCACAGTGGGTGACAAGCCAAGT | 63.3 a.u. |
| ATTCAAGAGATCCATCTCGTGACGGTGAAAAAATTT | 511 a.u. |

Set 2
Target: Histone acetyltransferase KAT6A, both winged helices, GST fusion (KAT6A, Homo sapiens, UniProt Q92794, residues 1-181)
Technique: protein binding microarray
Form: double-stranded DNA, one strand shown
Medium: in vitro
Tested at: not given
Notes: 8-mer, flanks averaged, mean of 2 arrays, mostly near background
Relative to: not given
Direction: higher = stronger binding
Residues (chain): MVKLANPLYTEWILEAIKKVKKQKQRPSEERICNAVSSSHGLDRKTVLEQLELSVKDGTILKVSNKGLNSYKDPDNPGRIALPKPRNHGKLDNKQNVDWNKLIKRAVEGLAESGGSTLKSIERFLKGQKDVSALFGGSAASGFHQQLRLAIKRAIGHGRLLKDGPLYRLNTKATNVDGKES
| Strand | E-score |
| --- | --- |
| CTACTGAC | -0.0202 |
| ATAGTTTA | -0.166 |
| AAGGCGAG | -0.0242 |
| CATACATA | 0.0132 |
| GCCATCAC | 0.0136 |
| AAAAGCAA | -0.0177 |
| AAACTCTC | -0.0921 |
| ATGAGATA | -0.0218 |
| ATAGGGAA | -0.152 |
| CCCGACCG | 0.173 |
| AGATGGTA | -0.128 |
| CCCCCGTA | 0.0417 |
| CCGGGGGC | 0.153 |
| GCCTGCGC | 0.253 |
| ACAGAGAC | -0.0623 |
| AAACTTCT | -0.0112 |
| ACAGAGAA | -0.129 |
| CAGACATA | 0.0283 |
| TAGCATGA | -0.24 |
| CGGACCCG | 0.306 |
| ATCTGCGA | -0.16 |
| CTTTTCAC | -0.0834 |
| CCTGACAA | -0.242 |
| GATTCCGC | 0.165 |

Set 3
Target: CCND1, cyclin fold, Cln2 fusion (human)
Technique: yeast growth competition, sequencing
Medium: yeast
Notes: weak parent motif
Relative to: not given
Direction: higher = stronger binding
Starting sequence: MICAL3 docking peptide (human); LQLRRQLSFSEDS; partner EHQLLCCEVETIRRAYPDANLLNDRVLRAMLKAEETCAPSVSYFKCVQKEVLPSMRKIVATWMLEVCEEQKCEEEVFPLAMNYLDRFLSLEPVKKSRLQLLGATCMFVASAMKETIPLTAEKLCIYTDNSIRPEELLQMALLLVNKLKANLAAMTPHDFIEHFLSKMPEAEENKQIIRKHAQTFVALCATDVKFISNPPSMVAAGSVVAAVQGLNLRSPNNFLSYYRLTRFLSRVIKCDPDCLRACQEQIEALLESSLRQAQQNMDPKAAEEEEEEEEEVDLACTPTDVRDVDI
| Variant | normalised enrichment score |
| --- | --- |
| Q6R | 2.22 |
| F9H | -0.369 |
| L3E | -0.206 |
| R5A | 0.0292 |
| E11F | -0.0722 |
| S8Y | -0.0578 |
| R4V | 0.24 |
| Q6T | 0.245 |
| S10T | 0.492 |
| S8P | -0.252 |
| Q6K | 1.96 |
| S10D | 0.653 |
| E11V | -0.149 |
| L3H | -0.143 |

Set 4
Target: RNA binding protein fox-1 homolog 2, RRM domain, GST-SBP tag (RBFOX2, Homo sapiens, UniProt O43251-10, residues 100-194)
Technique: RNA Bind-n-Seq
Form: RNA
Medium: in vitro
Tested at: 365 nM
Notes: natural RNA segment, single round, ends assumed
Relative to: no-protein control
Direction: higher = stronger binding
Constant ends, left off below: GGGAGUUCUACAGUCCGACGAUC … UGGAAUUCUCGGGUGCCAA
Target sequence (chain): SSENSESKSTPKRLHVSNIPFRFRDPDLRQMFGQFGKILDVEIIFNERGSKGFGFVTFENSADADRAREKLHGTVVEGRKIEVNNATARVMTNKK
| Strand | RBNS enrichment (R) |
| --- | --- |
| UAACUCACAUCAAUUUCGUUUAAUACAAACUGAUCCUGAAGAGCUGAGGAACUAUGUAAGUUCAGUGUCCAAGCAUUUGACUGACAUUUGUGCAGAGUUAGGUUCCAUCU | 0.278 |
| CACCCACCACCUUGCCCGGCUAAUUUUUUUGUAUUUUUAGUAGAGACAGGGUUUCACCAUAUUAGCCAGGAUGGUCUCGAUCUCCUGACCUCGUGAUCCGCCCACCUCGG | 0.256 |
| GCAGGGUCACACGCACCGUGUCCCCACCCAGGACAGCAGACACCCGCCAGAGUGUGCGCGCCCAGUGACUGCACCCCGGCCCUCAUCACCCACCGGCACUGAUCGGGGCA | 1.49 |
| CUUAGAGUAGGAUUGACCUCAUGGGCUGCUCUGCCCACUUGGUCAGGCUCUCCUGAGCAGGACUGCUAAAGAGCUUGCCUCCUCAAAGCCUGGUCUCUGAGGUGCUUUCU | 0.245 |
| GUAUUGGGGCAAUGUGUCAGGGAGGAAUCACCACAUCCCUACGGCAGUCCCAGCCAAGCCCCCAAUCCCAGCGGAGACUGUGCCCUGCUCAGAGCUCCCAAGCCUUCCCC | 0.671 |
| UAUUGUCAAUAUUUGAAGAAAAUCUUUUCUGAGCGCACCUAGGUGGCUUCUGACUUUGAUUUUCUGGCAAAACAUUGACUUUCCAUAGUGUUAGGGGCGGUGGUGGAGGU | 0.545 |
| CUUGCUUGCUUUCUGUUCCUUCUAGCCUUGGUGACUUCCACCAGGAAGAGAAUACCCCCUCUCUACCCCUGCUCCAAGACACUGUAGAUGCUAGUGUCGGAGUGUUCUCU | 2.05 |
| GGCCUCUGGGAAGAGGAGAAAUGUAGCCUGAGCUGGGGCUGGAGGCUGGUCACCGCAUAUCCUUGCCUUCCUUUGGAAUUCUCUUAAGGGAAAGGAAUUUUGCACUUAGC | 0.951 |
| ACCUGUUAGACAGUGGCAGAGAUAGGCCCAAGCUAAGUGGAGGCCAGGCCAGGCUGAGGGUGGGGCCCUCUGGGACCUAGUCCUCUAAGCUGUCUUUGUUAGAUACUGCU | 0.31 |
| AGCUUAAAAUUGCAGUGAUUGAGCAUAACCUACUUGUUUGUAUAAAUUAUUGAAAUCCAUUUGCACCCUGUUAAGAAUGGACUUAAAAGUACUGCUGGACAGGCAUGUGU | 3.14 |
| GUGGUCCCACCAUUGCCUGCAGAUGUCCUUCCUCUGUUCACAGUUAGGUUUAGUGAGCAUUUCAUGUCAGGGAGCCUCUGGCCAGUGUCUCUGGGAGGUCACUAAUCUAC | 0.793 |
| CAUGUCUCCAUAAGACAGGCCCACUAGAAACACCGUUCAGAACCAUAGAGAAGCCAUGGUUUCUGCUUCUCUCCAGGAGUCAGGCUUGCCACUCCAGCUGGGCCGGUGUG | 0.306 |

Set 5
Target: ABI1, truncated, D143A, DHFR fusion (Arabidopsis thaliana)
Technique: DHFR PCA, deep sequencing
Medium: yeast
Notes: methotrexate growth selection, single substitutions
Added: (+)-ABA 1.4 µM
Relative to: wild-type fitted maximum
Direction: higher = stronger binding
Starting sequence: PYL1, truncated, DHFR fusion (Arabidopsis thaliana); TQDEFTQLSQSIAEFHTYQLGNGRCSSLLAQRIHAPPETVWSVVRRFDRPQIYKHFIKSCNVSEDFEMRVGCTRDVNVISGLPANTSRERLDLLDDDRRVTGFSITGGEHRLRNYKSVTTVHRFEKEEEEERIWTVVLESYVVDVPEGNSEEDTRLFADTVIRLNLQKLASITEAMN; partner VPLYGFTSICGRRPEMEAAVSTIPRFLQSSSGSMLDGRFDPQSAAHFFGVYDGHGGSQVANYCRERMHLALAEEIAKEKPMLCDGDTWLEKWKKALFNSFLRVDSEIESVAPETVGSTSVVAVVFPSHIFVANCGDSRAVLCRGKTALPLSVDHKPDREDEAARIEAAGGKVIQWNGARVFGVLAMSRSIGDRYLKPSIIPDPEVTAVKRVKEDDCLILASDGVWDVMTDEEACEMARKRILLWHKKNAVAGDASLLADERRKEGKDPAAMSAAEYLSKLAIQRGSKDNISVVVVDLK
| Variant | relative binding score |
| --- | --- |
| A175Q | 54.5% |
| V136R | 2.97% |
| I79Y | 49.5% |
| S140I | -8.87% |
| S171Y | 27.5% |
| V121A | 12% |
| D96G | 7.42% |
| M176D | 42.7% |
| T39L | 68% |
| H55W | 52.2% |
| N165T | 13.1% |
| A30P | -13.4% |
| R132M | 62.3% |
| R98W | 8.86% |
| R69E | 48.7% |

Set 6
Sequence: FDPPLESKYECPICLMALREAVQTPCGHRFCKACIIKSIRDAGHKCPVDNEILLENQLFP (TRAF6 RING domain (UniProt Q9Y4K3))
Technique: yeast two-hybrid
Medium: yeast
Notes: mostly zero background
Relative to: not given
Direction: higher = stronger interaction
| target | lacZ reporter activity |
| --- | --- |
| UBE2Z UBC core domain (UniProt Q9H832) | 0 |
| UBE2J1 UBC core domain (UniProt Q9Y385) | 0 |
| UBE2I UBC core domain (UniProt P63279) | 0 |
| UBE2D4 UBC core domain (UniProt Q9Y2X8) | 0 |
| UBE2D2 UBC core domain (UniProt P62837) | 0 |
| UBE2J2 UBC core domain (UniProt Q8N2K1) | 0 |
| UBE2L3 UBC core domain (UniProt P68036) | 0 |
| UBE2R2 UBC core domain (UniProt Q712K3) | 0 |
| UBE2B UBC core domain (UniProt P63146) | 0 |
| UBE2G1 UBC core domain (UniProt P62253) | 0 |
| BIRC6 UBC core domain (UniProt Q9NR09) | 0 |

Repeated from above (set 4):
| Strand | RBNS enrichment (R) |
| --- | --- |
| CAUGUCUCCAUAAGACAGGCCCACUAGAAACACCGUUCAGAACCAUAGAGAAGCCAUGGUUUCUGCUUCUCUCCAGGAGUCAGGCUUGCCACUCCAGCUGGGCCGGUGUG | 0.306 |
| GCAGGGUCACACGCACCGUGUCCCCACCCAGGACAGCAGACACCCGCCAGAGUGUGCGCGCCCAGUGACUGCACCCCGGCCCUCAUCACCCACCGGCACUGAUCGGGGCA | 1.49 |
| GUGGUCCCACCAUUGCCUGCAGAUGUCCUUCCUCUGUUCACAGUUAGGUUUAGUGAGCAUUUCAUGUCAGGGAGCCUCUGGCCAGUGUCUCUGGGAGGUCACUAAUCUAC | 0.793 |
| GUAUUGGGGCAAUGUGUCAGGGAGGAAUCACCACAUCCCUACGGCAGUCCCAGCCAAGCCCCCAAUCCCAGCGGAGACUGUGCCCUGCUCAGAGCUCCCAAGCCUUCCCC | 0.671 |
| AGCUUAAAAUUGCAGUGAUUGAGCAUAACCUACUUGUUUGUAUAAAUUAUUGAAAUCCAUUUGCACCCUGUUAAGAAUGGACUUAAAAGUACUGCUGGACAGGCAUGUGU | 3.14 |
| UAACUCACAUCAAUUUCGUUUAAUACAAACUGAUCCUGAAGAGCUGAGGAACUAUGUAAGUUCAGUGUCCAAGCAUUUGACUGACAUUUGUGCAGAGUUAGGUUCCAUCU | 0.278 |
| ACCUGUUAGACAGUGGCAGAGAUAGGCCCAAGCUAAGUGGAGGCCAGGCCAGGCUGAGGGUGGGGCCCUCUGGGACCUAGUCCUCUAAGCUGUCUUUGUUAGAUACUGCU | 0.31 |
